Measurements gathered from unrelated publications.
Compare with care: the assays were run in different laboratories. ± marks the error that the study gave.
Target: ATP-dependent translocase ABCB1 (ABCB1, Homo sapiens, UniProt P08183)
UniProt P08183, sequence (whole entry, looked up): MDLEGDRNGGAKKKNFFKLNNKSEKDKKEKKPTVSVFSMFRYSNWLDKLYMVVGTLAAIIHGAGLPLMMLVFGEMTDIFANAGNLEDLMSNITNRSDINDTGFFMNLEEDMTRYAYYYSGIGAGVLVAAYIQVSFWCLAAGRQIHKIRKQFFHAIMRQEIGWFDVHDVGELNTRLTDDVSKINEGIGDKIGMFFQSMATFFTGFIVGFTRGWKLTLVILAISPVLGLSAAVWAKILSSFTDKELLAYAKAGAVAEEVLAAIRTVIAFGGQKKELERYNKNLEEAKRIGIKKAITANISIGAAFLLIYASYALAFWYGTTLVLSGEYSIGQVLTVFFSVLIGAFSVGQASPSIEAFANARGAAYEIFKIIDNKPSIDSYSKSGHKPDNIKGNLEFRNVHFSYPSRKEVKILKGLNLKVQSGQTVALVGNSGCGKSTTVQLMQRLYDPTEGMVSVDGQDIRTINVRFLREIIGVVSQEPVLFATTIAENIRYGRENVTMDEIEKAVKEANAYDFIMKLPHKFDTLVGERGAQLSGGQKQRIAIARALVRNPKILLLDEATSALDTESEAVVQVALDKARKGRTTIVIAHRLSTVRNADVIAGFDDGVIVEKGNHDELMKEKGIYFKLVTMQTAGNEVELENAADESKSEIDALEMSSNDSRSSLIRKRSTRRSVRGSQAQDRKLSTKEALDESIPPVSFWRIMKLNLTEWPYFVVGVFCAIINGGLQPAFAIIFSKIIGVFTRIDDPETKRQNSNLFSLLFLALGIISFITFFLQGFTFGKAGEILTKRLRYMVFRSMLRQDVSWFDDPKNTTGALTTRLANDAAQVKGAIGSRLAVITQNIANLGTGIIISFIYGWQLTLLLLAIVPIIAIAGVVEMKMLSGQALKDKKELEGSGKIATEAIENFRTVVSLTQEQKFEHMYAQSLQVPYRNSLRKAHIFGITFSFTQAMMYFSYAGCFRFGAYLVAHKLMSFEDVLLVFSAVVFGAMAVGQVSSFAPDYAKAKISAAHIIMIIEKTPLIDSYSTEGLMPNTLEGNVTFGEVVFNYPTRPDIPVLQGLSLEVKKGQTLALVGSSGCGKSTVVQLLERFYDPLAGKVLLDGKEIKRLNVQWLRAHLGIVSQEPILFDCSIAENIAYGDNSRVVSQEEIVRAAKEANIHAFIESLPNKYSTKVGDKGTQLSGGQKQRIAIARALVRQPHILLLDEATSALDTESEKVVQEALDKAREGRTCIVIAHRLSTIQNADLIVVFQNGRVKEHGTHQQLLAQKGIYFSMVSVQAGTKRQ

| Structure (SMILES) | assay | system | conditions | scale | measurement | value |
| --- | --- | --- | --- | --- | --- | --- |
| CC(=O)OCCc1cc(O)c(O)c(-c2cc(CCOC(C)=O)cc(O)c2O)c1 | rhodamine 123 efflux | – | 10 µM | baseline: GF120918 0.5 µM | inhibition | 0 ± 2.3% |
| C[C@H]1C(OC(=O)C(Cl)Cl)O[C@@H]2O[C@@]3(C)CC[C@H]4[C@H](C)CCC1[C@@]24OO3 (stereo partly shown) | calcein-AM efflux, inhibitor, flow cytometry | CEM/ADR5000 | 30 min, added: calcein-AM 1 µM | baseline: untreated | maximal effect | 1380 ± 199% |
| OCCc1ccc(O)c(-c2cc(CCO)ccc2O)c1 | rhodamine 123 efflux | – | 10 µM | baseline: GF120918 0.5 µM | inhibition | -0.3 ± 2% |
| C[C@H]1C(OC(=O)N(C)C)O[C@@H]2O[C@@]3(C)CC[C@H]4[C@H](C)CCC1[C@@]24OO3 (stereo partly shown) | calcein-AM efflux, inhibitor, flow cytometry | CEM/ADR5000 | 30 min, added: calcein-AM 1 µM | baseline: untreated | maximal effect | 3340% |
| COc1cc(CCOC(C)=O)cc(-c2cc(CCOC(C)=O)cc(O)c2O)c1O | rhodamine 123 efflux | – | 50 µM | baseline: GF120918 0.5 µM | inhibition | -0.4 ± 1.6% |
| CC(C)CCN(c1nc(C#N)nc(NC2COC2)n1)C(C)c1ccc(F)cc1 (stereo not shown) | substrate | MDCKII-MDR1 | 1 µM, 4 h | – | Papp A-B | 355 nm/s |
| Cc1cccc(C)c1OCC(=O)N[C@@H](Cc1ccccc1)[C@H](C[C@H](Cc1ccccc1)NC(=O)[C@H](C(C)C)N1CCCNC1=O)OC(=O)[C@H](CC(C)C)NC(=O)[C@@H](N)Cc1cnc[nH]1 | – | MDCK-MDR1, Caco-2 | – | – | Papp A→B | 67.2 nm/s |
| C[C@H]1C(OC(=O)c2ccccc2)O[C@@H]2O[C@@]3(C)CC[C@H]4[C@H](C)CCC1[C@@]24OO3 (stereo partly shown) | calcein-AM efflux, inhibitor, flow cytometry | CEM/ADR5000 | 30 min, added: calcein-AM 1 µM | baseline: untreated | maximal effect | 2640 ± 424% |
| COc1cc(/C=C/C(=O)c2ccc3ccccc3c2)ccc1OCc1ccccc1 | mitoxantrone efflux, flow cytometry | – | 10 µM | – | inhibition | no inhibition |
| CC1(C)OC(=O)C[C@H](O)[C@]2(C)[C@H]3CC[C@@]4(C)[C@H](c5ccoc5)OC(=O)[C@H]5O[C@]54[C@]3(C)C(=O)C[C@@H]12 | inhibitor, rhodamine 123 retention | COLO 320 and COLO 205 | 20 µM, added: rhodamine 123 5.2 µM | baseline: COLO 320 over COLO 205, higher = stronger inhibition | fluorescence activity ratio | 0.78 |
| C[C@H]1C(NCCS)O[C@@H]2O[C@@]3(C)CC[C@H]4[C@H](C)CCC1[C@@]24OO3 (stereo partly shown) | transport inhibition, inhibitor, flow cytometry | CEM/ADR5000 leukaemia | added: calcein-AM 1 µM | – | EC50 | 27.2 ± 4.69 µM |
| CC(C)=CCc1c(OCC2OC2(C)C)ccc2ccc(=O)oc12 (stereo not shown) | inhibitor, rhodamine 123 retention | COLO 320 and COLO 205 | 20 µM, added: rhodamine 123 5.2 µM | baseline: COLO 320 over COLO 205, higher = stronger inhibition | fluorescence activity ratio | 4.86 |
| COc1cc(CCOC(C)=O)cc(-c2cc(CCOC(C)=O)cc(OC)c2O)c1O | rhodamine 123 efflux | – | 10 µM | baseline: GF120918 0.5 µM | inhibition | 0.3 ± 0.6% |

Some of these lines once more:
| Structure (SMILES) | assay | system | conditions | scale | measurement | value |
| --- | --- | --- | --- | --- | --- | --- |
| CC(C)=CCc1c(OCC2OC2(C)C)ccc2ccc(=O)oc12 (stereo not shown) | inhibitor, rhodamine 123 retention | COLO 320 and COLO 205 | 20 µM, added: rhodamine 123 5.2 µM | baseline: COLO 320 over COLO 205, higher = stronger inhibition | fluorescence activity ratio | 4.86 |
